{"data": "Experimental data from different studies", "note": "A part holds a random share of what one study measured."}
{"data": "Block 1", "target": "Prothrombin, mature alpha-thrombin (F2, Homo sapiens, UniProt P00734)", "method": "aptamer microarray, sandwich", "molecule type": "DNA with 2'F-ANA", "matrix": "in vitro", "concentration": "200 nM", "notes": "whole 15-mer aptamer, many near background", "added": "Cy3 exosite-II aptamer, 400 nM", "reading": "higher = stronger binding", "oligonucleotide": "GGTTGGTGTGGTTGG"}
{"Modification": "2'F-ANA at 1 5 7 8 9 11 15", "mean fluorescence intensity": "53.8 a.u."}
{"Modification": "2'F-ANA at 1 3 6 11 13 15", "mean fluorescence intensity": "195 a.u."}
{"Modification": "2'F-ANA at 1 2 5 7 9 11 14 15", "mean fluorescence intensity": "44.6 a.u."}
{"Modification": "2'F-ANA at 2 3 7 8 10 11 13 15", "mean fluorescence intensity": "288 a.u."}
{"Modification": "2'F-ANA at 4 5 7 11", "mean fluorescence intensity": "57.4 a.u."}
{"Modification": "2'F-ANA at 1 2 4 5 7 8 11 12 13 14", "mean fluorescence intensity": "51.9 a.u."}
{"Modification": "2'F-ANA at 1 4 5 8 10 14 15", "mean fluorescence intensity": "46.4 a.u."}
{"Modification": "2'F-ANA at 1 4 6 8 9 10 14", "mean fluorescence intensity": "47.7 a.u."}
{"Modification": "2'F-ANA at 1 2 3 5 7 8 12", "mean fluorescence intensity": "153 a.u."}
{"Modification": "2'F-ANA at 1 3 5 8 9 10 13", "mean fluorescence intensity": "54.1 a.u."}
{"Modification": "2'F-ANA at 1 2 4 6 9 10 13", "mean fluorescence intensity": "56.7 a.u."}
{"Modification": "2'F-ANA at 1 2 3 10 12 14", "mean fluorescence intensity": "62 a.u."}
{"Modification": "2'F-ANA at 1 4 8 12 13 15", "mean fluorescence intensity": "282 a.u."}
{"Modification": "2'F-ANA at 2 3 5 6 7 9 10 11 13 14 15", "mean fluorescence intensity": "49.1 a.u."}
{"Modification": "2'F-ANA at 3 5 6 7 9 10 11 12 13", "mean fluorescence intensity": "57.4 a.u."}
{"Modification": "2'F-ANA at 1 3 4 5 6 7 8 9 11 13", "mean fluorescence intensity": "75.7 a.u."}
{"Modification": "2'F-ANA at 1 2 5 6 8 10 11 13 14", "mean fluorescence intensity": "47.8 a.u."}
{"Modification": "2'F-ANA at 1 2 4 10 14 15", "mean fluorescence intensity": "48.3 a.u."}
{"Modification": "2'F-ANA at 1 4 5 6 7 9 13", "mean fluorescence intensity": "59.9 a.u."}
{"Modification": "2'F-ANA at 1 2 4 7 8 10", "mean fluorescence intensity": "50.3 a.u."}
{"data": "Block 2", "target": "RNA binding protein fox-1 homolog 2, RRM domain, GST-SBP tag (RBFOX2, Homo sapiens, UniProt O43251-10, residues 100-194)", "method": "RNA Bind-n-Seq", "molecule type": "RNA", "matrix": "in vitro", "concentration": "365 nM", "notes": "natural RNA segment, single round, ends assumed", "relative to": "no-protein control", "reading": "higher = stronger binding", "all sequences stand within": "GGGAGUUCUACAGUCCGACGAUC … UGGAAUUCUCGGGUGCCAA", "Construct (chain)": "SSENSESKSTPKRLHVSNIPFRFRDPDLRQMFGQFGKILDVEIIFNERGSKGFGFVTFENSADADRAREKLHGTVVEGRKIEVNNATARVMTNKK"}
{"Oligonucleotide": "CACUUGAUUCCAAGUGUGGUUGAAUUGUCUGGAGCACUGGGACUUUUUUUCUCUUUUCCUUGAUGGACCAACAGUGCAAAUGCAAUCUCGCCAUUUAACUUUCAGGUCGA", "RBNS enrichment (R)": 0.351}
{"Oligonucleotide": "AGUACUUCUCUACUAUCCUAUUAUUAGCUUCUAUCUCUUAGUGUAACUUCAAAACUUUUAAGAGCAGUGAAGUUGGUCAGGGACAUGUGGCCACUUAUUAUUACCUAAAG", "RBNS enrichment (R)": 0.234}
{"Oligonucleotide": "GAGCUCUGGCCUAGGGACCUUGCCGCUGACCAAGAGGGAGGACCAGUGCAGGGUCUGUGCACCUUCCCUGCUGGCCUGCACACAGCUGCUCAGCACCACUUUCAUUCUGG", "RBNS enrichment (R)": 0.451}
{"Oligonucleotide": "UUUCCGGGCGGCACUGUGAUGGGAGCUGGUGGCGACUGAGUCCUUCUGUACGUGCAACUGGGAAACUUUUGUCCUUUGAGGCUAGGCAGCUCCCUGCCCUCCGUGUGUGU", "RBNS enrichment (R)": 0.855}
{"Oligonucleotide": "AAUCAAAUGUGAAGUUGAUCCAGAGAGAGCCUAGGUGACUGGGGAGCCAUUGAGUAGGGAAUUGUAUUGGAUGAUGGUUUUCAUUUUUGUUACUGAAAACAAAGUCUUGU", "RBNS enrichment (R)": 1.4}
{"Oligonucleotide": "AGCACUUCUUCUGGAUUUGAAUUCAAAUGUCAUUCUUAACAUUUCUGUUGAUGCUUCUUUGAAAAUCUUCGCUUGAUUUUGGCUGUAAAUCACCUACCCUGUUAAAUGCU", "RBNS enrichment (R)": 0.282}
{"Oligonucleotide": "UUUAUAUUUUAGUUUGUCACCUUUGCAUUGCAGAAUAAAUACUGAAUAACCAUUUUUAUAAGCAGUUGCUCCUCUUUGCAUGGUUCUAUUCUCUAAAAGUGUUGAAUGAU", "RBNS enrichment (R)": 0.931}
{"Oligonucleotide": "GCUCCAGGCAGGACAUCAGACUGUCUGGGGAGUUGGCCCUGGGCUUCUGUGUUGUGUGCAGAGACUGCACAGUAAAACAGUCACUUUUGCCAACAAGAAUGUGUGGCGCC", "RBNS enrichment (R)": 0.399}
{"data": "Block 3", "target": "Centromere-binding protein 1, full length, N-terminal tag (CBF1, Saccharomyces cerevisiae, UniProt P17106, residues 1-351)", "method": "protein-binding microarray", "molecule type": "double-stranded DNA, one strand shown", "matrix": "in vitro", "concentration": "0.8 µM", "notes": "whole 60-bp probe, no competitor", "reading": "higher = stronger binding", "all sequences stand within": "… GTCTTGATTCGCTTGACGCTGCTG", "chain of UniProt P17106 (whole entry, looked up)": "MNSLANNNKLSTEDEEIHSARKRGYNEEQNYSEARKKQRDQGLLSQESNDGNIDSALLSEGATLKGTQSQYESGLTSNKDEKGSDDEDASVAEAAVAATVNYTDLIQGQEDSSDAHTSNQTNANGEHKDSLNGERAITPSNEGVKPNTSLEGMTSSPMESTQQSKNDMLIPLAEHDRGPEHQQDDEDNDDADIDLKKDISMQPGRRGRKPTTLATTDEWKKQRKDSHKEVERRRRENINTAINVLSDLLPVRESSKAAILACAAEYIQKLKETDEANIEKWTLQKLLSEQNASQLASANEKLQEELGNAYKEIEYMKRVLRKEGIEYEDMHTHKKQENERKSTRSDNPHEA"}
{"Oligonucleotide": "GAACTATGTCCATATCACGCGCGCTAAAACAGCTAG", "fluorescence intensity [a.u.]": 1230}
{"Oligonucleotide": "CTATTTCAAAGCTGTCTCCACGTGGAAAGTTTATTC", "fluorescence intensity [a.u.]": 3640}
{"Oligonucleotide": "GAACTGTGCAATGATCACGAAAGACAAATTTCGTAG", "fluorescence intensity [a.u.]": 807}
{"Oligonucleotide": "CTATTGCCATTCTTAAACGTGGCCTACAAGAACTTC", "fluorescence intensity [a.u.]": 545}
{"Oligonucleotide": "GAAAGAAAAAAAAATCACCTGACATATTTTTATTAG", "fluorescence intensity [a.u.]": 5200}
{"Oligonucleotide": "TGTACGAAGCTATGTGACACAAATATAGTAGTTAGG", "fluorescence intensity [a.u.]": 588}
{"Oligonucleotide": "GAATCCCTTTTTCAACAGTCACGTGCGCATCTCTAG", "fluorescence intensity [a.u.]": 15100}
{"Oligonucleotide": "CCTAACTACTATATCAACTGAACATAGCTTCGTACA", "fluorescence intensity [a.u.]": 550}
{"Oligonucleotide": "GAAGGGATGCTTCGTCACGTAAAATGGCCGCCGTAG", "fluorescence intensity [a.u.]": 524}
{"Oligonucleotide": "CTAATCCCTGCGCCCGGCGTGCTCCACATTAAGTTC", "fluorescence intensity [a.u.]": 524}
{"Oligonucleotide": "CCTAACTACTATAAAAGTGTGCGATAGCTTCGTACA", "fluorescence intensity [a.u.]": 487}
{"Oligonucleotide": "GAAATTCACAGTACTCTCGTCAGCTTTGTCACGTAG", "fluorescence intensity [a.u.]": 572}
{"Oligonucleotide": "GAATTTTCTTTGTGTCACATGTAGACTTTGATATAG", "fluorescence intensity [a.u.]": 3050}
{"Oligonucleotide": "GAAATGAATGAAGAGCTCATGCACAGGCATGTATAG", "fluorescence intensity [a.u.]": 507}
{"Oligonucleotide": "CTATTCAACAAACGTGATGTTGTATATGCCTGATTC", "fluorescence intensity [a.u.]": 1360}
{"Oligonucleotide": "CTAATCTGTGCCCATGTGATCTGTACCTTTTTTTTC", "fluorescence intensity [a.u.]": 2800}
{"Oligonucleotide": "CTACCTCTCAGCCGTCACGTCTCTAGCTGAAGCTTC", "fluorescence intensity [a.u.]": 571}
{"Oligonucleotide": "GAAGTAAGTGAGTGCCTCGTGAACTGCTATTTTTAG", "fluorescence intensity [a.u.]": 533}
{"Oligonucleotide": "CTAAGGCGTCAGTCAGGTGCAATTAATAGGTCATTC", "fluorescence intensity [a.u.]": 1520}
{"data": "Block 4", "target": "Histone acetyltransferase KAT6A, winged helix 1, GST fusion (KAT6A, Homo sapiens, UniProt Q92794, residues 1-85)", "method": "protein binding microarray", "molecule type": "double-stranded DNA, one strand shown", "matrix": "in vitro", "concentration": "not given", "notes": "8-mer, flanks averaged, mean of 2 arrays, mostly near background", "relative to": "not given", "reading": "higher = stronger binding", "Construct (chain)": "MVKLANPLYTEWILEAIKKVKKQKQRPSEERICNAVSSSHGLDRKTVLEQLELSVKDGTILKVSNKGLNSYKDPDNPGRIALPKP"}
{"Oligonucleotide": "AAACTTCA", "E-score": -0.0964}
{"Oligonucleotide": "TCTAGTCA", "E-score": -0.142}
{"Oligonucleotide": "ATGTATGA", "E-score": -0.159}
{"Oligonucleotide": "AAGGTACG", "E-score": 0.153}
{"Oligonucleotide": "AAGTCGTC", "E-score": -0.0148}
{"Oligonucleotide": "CTACGCAG", "E-score": -0.0188}
{"Oligonucleotide": "CAAACAAC", "E-score": -0.162}
{"Oligonucleotide": "GAAAAACC", "E-score": -0.0264}
{"Oligonucleotide": "CCAGCTTA", "E-score": 0.0343}
{"Oligonucleotide": "CCCATAAG", "E-score": -0.113}
{"Oligonucleotide": "ACCGCGGA", "E-score": 0.338}
{"Oligonucleotide": "ACCTATTC", "E-score": 0.014}
{"Oligonucleotide": "GCCATGGC", "E-score": 0.0854}
{"Oligonucleotide": "ATTGCATC", "E-score": -0.0959}
{"Oligonucleotide": "ACAGTGAA", "E-score": -0.0666}
{"Oligonucleotide": "AGACGGAT", "E-score": 0.149}
{"Oligonucleotide": "AAGTTAAC", "E-score": -0.092}
{"Oligonucleotide": "AGAGCCTC", "E-score": 0.0321}
{"Oligonucleotide": "CTGGCAAG", "E-score": -0.219}
{"Oligonucleotide": "ACGTCTGG", "E-score": -0.147}
{"Oligonucleotide": "CATTTAGA", "E-score": -0.138}
{"Oligonucleotide": "GACATCCC", "E-score": 0.0917}
{"Oligonucleotide": "AGTGCTCC", "E-score": 0.0539}
{"Oligonucleotide": "CCTTTGTC", "E-score": -0.172}
{"note": "Repeated from above (block 1):"}
{"Modification": "2'F-ANA at 2 3 7 8 10 11 13 15", "mean fluorescence intensity": "288 a.u."}
{"Modification": "2'F-ANA at 4 5 7 11", "mean fluorescence intensity": "57.4 a.u."}
{"Modification": "2'F-ANA at 1 2 4 5 7 8 11 12 13 14", "mean fluorescence intensity": "51.9 a.u."}
{"Modification": "2'F-ANA at 1 4 5 8 10 14 15", "mean fluorescence intensity": "46.4 a.u."}
